Experimental data pooled from the literature.
Numbered parts are unrelated; each lists some results of a single study. Substitutions count along the parent as printed.

Sample 1
Target: CCND1, cyclin fold, Cln2 fusion (human)
Technique: yeast growth competition, sequencing
Matrix: yeast
Notes: strong parent motif
Reference: not given
Direction: higher = stronger binding
Starting sequence: PKN2 docking peptide (human); VSAVRKLDFSDTM
| Variant | normalised enrichment score |
| --- | --- |
| VLAVRKLDFSDTM [S2L] | 2.92 |
| VVAVRKLDFSDTM [S2V] | 2.64 |
| VSAVRKLMFSDTM [D8M] | 1.55 |
| VSAVRKLDFSDCM [T12C] | 5.11 |

Sample 2
Target: RNA binding protein fox-1 homolog 2, RRM domain, GST-SBP tag (RBFOX2, Homo sapiens, UniProt O43251-10, residues 100-194)
Technique: RNA Bind-n-Seq
Form: RNA
Matrix: in vitro
Concentration: 365 nM
Notes: natural RNA segment, single round, ends assumed
Reference: no-protein control
Direction: higher = stronger binding
Construct (chain): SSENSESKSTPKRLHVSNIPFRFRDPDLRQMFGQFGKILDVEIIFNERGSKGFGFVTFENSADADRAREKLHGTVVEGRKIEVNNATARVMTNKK
| Strand | RBNS enrichment (R) |
| --- | --- |
| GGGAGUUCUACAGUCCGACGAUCAAGUUGAUUGUAGUUGUCCCGUCCUGUGGGCUGGCUCACUGUCCUGUGUCCUUUGCGUUCCUCGUUUAAGCAAAAGAAGUUAGUAGCUAAUUCUAUCACGAAUGUUCUUGUGGAAUUCUCGGGUGCCAA | 0.407 |
| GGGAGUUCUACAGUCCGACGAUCUAUAGCUGUGGCUCAUGCUACCCAAUUCCAGAUUUCUUUGUCCUCUAAGAGUUGAUUGCUGUAUAUUAAAAUUGAACAUCAGAGGAUGGGAAGAGGGCUCUGUAAGCCAGUGGAAUUCUCGGGUGCCAA | 0.751 |
| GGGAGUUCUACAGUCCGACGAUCUACCUAGCCUCCCCUGGCUGCUCUCCUGUCAGUGAGAUGCAGGAGCCGCCCUCUGCUCUCAGUGGUCUCUGCUACUGAUGAAUCCAGUGGGUUUCCUUUCAUAUUCUCCUUGGAAUUCUCGGGUGCCAA | 0.211 |
| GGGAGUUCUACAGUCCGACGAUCAGGGGAGAGAAGGCCUCAUCUCUCUAUAUUUAUACAUAACCCCGGGGAAGACACAGAGACUCGUACCUGCGCUGUUUGUGCCGCCGCUGCCUCUGGGCCCUCCCAGCACAUGGAAUUCUCGGGUGCCAA | 0.403 |
| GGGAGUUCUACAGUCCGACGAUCAACUGUGCUUCCCUCAGCUGGUCGCCACCCCUGGGCCUUUCCAUCUCCUGUUUUGCAACCAGGAUGAGGACCCCUCCAUCUCCGUGGAUUACUGAGGGGGGCUCUUGCUUUGGAAUUCUCGGGUGCCAA | 0.196 |
| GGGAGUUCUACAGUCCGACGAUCGUGGACGCUCACUAAGACCGAAACUGGAGAAGGGCUGGGCCUGGACCUAACAUUGGGGACUUAAAUGCCUUCUUAUCCAAUAUAUCUUCUCAGAUGGGAUGACUGCGGGUUGGAAUUCUCGGGUGCCAA | 0.248 |
| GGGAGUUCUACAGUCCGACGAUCCCUUUCUCUACCACAGCAAACACAUUCUCCACCAUGUCAGUCUAAAGAGUCUAAAGGGGCCGGGAGAAGCAUGAGCGAGGGGCAGAUUCUAGUCGGGAGCCCAUGCCCUGUGGAAUUCUCGGGUGCCAA | 0.646 |

Sample 3
Target: Sal-like protein 4, full length isoform A (SALL4, Homo sapiens, UniProt Q9UJQ4, residues 1-1053)
UniProt Q9UJQ4, sequence (whole entry, looked up): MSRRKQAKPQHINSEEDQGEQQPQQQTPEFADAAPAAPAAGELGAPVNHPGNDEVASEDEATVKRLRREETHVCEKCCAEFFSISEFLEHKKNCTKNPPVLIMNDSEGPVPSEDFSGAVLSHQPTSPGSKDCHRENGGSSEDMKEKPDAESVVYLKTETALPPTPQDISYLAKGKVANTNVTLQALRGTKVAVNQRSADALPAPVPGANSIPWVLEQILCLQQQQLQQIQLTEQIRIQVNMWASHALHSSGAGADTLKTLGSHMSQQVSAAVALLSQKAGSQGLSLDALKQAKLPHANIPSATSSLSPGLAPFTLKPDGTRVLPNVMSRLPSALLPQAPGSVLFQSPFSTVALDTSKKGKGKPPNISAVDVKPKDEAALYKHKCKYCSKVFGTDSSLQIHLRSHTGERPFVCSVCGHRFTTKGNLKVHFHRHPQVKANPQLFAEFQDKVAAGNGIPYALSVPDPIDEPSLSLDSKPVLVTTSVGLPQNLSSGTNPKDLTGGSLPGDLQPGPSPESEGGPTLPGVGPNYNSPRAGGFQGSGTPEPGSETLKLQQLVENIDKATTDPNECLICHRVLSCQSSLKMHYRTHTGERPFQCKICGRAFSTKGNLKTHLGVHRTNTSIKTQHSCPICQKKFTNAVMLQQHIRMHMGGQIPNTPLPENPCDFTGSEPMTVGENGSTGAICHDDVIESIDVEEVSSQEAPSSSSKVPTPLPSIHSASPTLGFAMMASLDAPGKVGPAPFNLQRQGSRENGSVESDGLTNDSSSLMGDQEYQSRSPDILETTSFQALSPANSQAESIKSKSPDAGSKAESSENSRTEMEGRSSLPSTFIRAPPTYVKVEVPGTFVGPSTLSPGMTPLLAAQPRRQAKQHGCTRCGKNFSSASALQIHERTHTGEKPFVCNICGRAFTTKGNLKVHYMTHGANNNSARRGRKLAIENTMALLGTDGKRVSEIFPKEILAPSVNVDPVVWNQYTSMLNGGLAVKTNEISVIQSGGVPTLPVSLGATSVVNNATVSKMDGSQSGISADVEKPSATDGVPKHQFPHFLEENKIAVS
Technique: universal PBM
Form: double-stranded DNA, one strand shown
Matrix: in vitro
Concentration: 600 nM
Notes: 8-mer, flanks averaged, mean of replicates
Direction: higher = stronger binding
| Strand | E-score |
| --- | --- |
| AGCTTAGG | -0.131 |
| ATCAGTAC | 0.147 |
| TAAACGGA | 0.115 |
| CCTAAAAC | 0.083 |
| CCCGTAGA | -0.217 |
| CCGGTGAC | -0.397 |
| CGGGTACG | -0.342 |
| ATCCCGAA | -0.0507 |

Other studies, line by line
| Molecule | target | assay | system | conditions | scale | endpoint | value |
| --- | --- | --- | --- | --- | --- | --- | --- |
| PhoQ, residues 284 288 289 292 302 303 AMDMFI | PhoP, residues 12 14 15 18 19 IFFTR (Escherichia coli, UniProt P23836) | Sort-seq, measured: YFP reporter | E. coli | PhoQ-PhoP variant library, with: 10 µM Mg2+ | reference: high Mg2+ state, higher = stronger signaling | fold induction | 0.425 |

For quick reference, copied from above (sample 3):
| Strand | E-score |
| --- | --- |
| CCCGTAGA | -0.217 |
| CGGGTACG | -0.342 |
| CCTAAAAC | 0.083 |
